Assay results of several laboratories.
Numbered parts are unrelated; each lists some results of a single study.

Block 1
Target: Interferon regulatory factor 7, full length, phosphomimetic (IRF7, Homo sapiens, UniProt Q92985, residues 1-503, S101K/S471D/S472D/S475D/S476D/S477D/S483D/S484D/S487D)
Chain of UniProt Q92985 (whole entry, unmodified, looked up): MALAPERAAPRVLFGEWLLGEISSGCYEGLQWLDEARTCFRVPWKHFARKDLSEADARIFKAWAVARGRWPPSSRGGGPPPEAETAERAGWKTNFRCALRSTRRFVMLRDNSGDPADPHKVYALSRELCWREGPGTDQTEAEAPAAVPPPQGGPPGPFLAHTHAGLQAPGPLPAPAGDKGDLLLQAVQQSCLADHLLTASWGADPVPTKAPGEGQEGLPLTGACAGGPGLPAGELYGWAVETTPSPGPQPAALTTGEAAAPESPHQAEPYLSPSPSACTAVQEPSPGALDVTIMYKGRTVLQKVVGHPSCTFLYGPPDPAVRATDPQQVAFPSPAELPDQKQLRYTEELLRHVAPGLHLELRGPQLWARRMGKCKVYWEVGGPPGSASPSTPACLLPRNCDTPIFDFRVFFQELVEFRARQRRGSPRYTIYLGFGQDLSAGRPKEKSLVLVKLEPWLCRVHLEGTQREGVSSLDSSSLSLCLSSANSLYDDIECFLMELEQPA
Method: protein-binding microarray
Form: double-stranded DNA, one strand shown
Sample: in vitro
Concentration: 250 nM
Setting: 60-bp whole probe
Added: salmon DNA 0.4 mg/ml
Reference: random background probes
Reading: higher = stronger binding
Shared flanks, not repeated: GCCTAGCAC … GTCTTGATTCGCTTGACGCTGCTG
`TTCGGTCTCCTTCTCCTTTAGTGCTAG` has a log fluorescence of 0.645 z-score.
With `ACAGCCTTTCTAACTTGAAAGTGCTAG` the log fluorescence was -0.137 z-score.
The log fluorescence of `GACGGTCTCATACTGCTGACGTGCTAG` is reported as 0.0296 z-score.
`GACGTTTTCCTTTCCCTGACGTGCTAG` gave a log fluorescence of 2.97 z-score.
`GACGGAATGGGGTTTCGGGACGTGCTA` gave a log fluorescence of 1.31 z-score.
With `TTTTACATTTTAAGAAATGTGTGCTAG` the log fluorescence was 1.04 z-score.
`GACGATTTCAGTTTCGGGACGTGCTAG` gave a log fluorescence of 3.87 z-score.

Block 2
Target: RNA binding protein fox-1 homolog 2, RRM domain, GST-SBP tag (RBFOX2, Homo sapiens, UniProt O43251-10, residues 100-194)
Method: RNA Bind-n-Seq
Form: RNA
Sample: in vitro
Concentration: 365 nM
Setting: natural RNA segment, single round, ends assumed
Reference: no-protein control
Reading: higher = stronger binding
`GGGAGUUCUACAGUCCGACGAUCUUGUUGAUGGAAUACUGUAUCAUAUGCUCAACUCUGAAAACCUUGAACACGGCCAAAAUCCAUAAAGAUUAUAAAAGCAAACUAAGUUGUGAAGCUAUAGUACAUGUAGGUGGAAUUCUCGGGUGCCAA`: “RBNS enrichment (R)” 0.391.
`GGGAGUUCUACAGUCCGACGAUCGGCAAGCCAGAACUCCAGAGCUGAGCUGGUCACAGUCACUCCUCCCCCACCACCCCUGCCCCUCCAGAGGCUGCAGUUUUCUCGCCUGUCACUUGGAACAUUAGAGCUCCUGGAAUUCUCGGGUGCCAA`: “RBNS enrichment (R)” 0.533.
Under “RBNS enrichment (R)”, `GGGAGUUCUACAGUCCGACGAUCUCUCAGAGAAUCUCUGUGGAACUGCCCGUUCCAAUAUAAUAAUCUCCUCCUUUACAAGAGCUUUCCUCUCCUCUCUCUUGCUCUCAGAGACCUAUAAAUCCAACCAGUUAUGGAAUUCUCGGGUGCCAA` is recorded as 1.04.
Under “RBNS enrichment (R)”, `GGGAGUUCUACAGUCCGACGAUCCUCUGACCCACGCCCCCUCCUUGUCUGAAAGAAAGGAGCCUUGAAUGGUGGAGGGAGGCAGUGGGGAGAAAGGUCUCACCGGACAGGUUGGGAGAAUGAGGUCAGCGGUGUGGAAUUCUCGGGUGCCAA` is recorded as 1.43.
`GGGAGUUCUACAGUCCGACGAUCUGGCUGAAACUGCCACCAACUGCCACGAUGAACCCAACUGCUGUUUAUGCCCCCAUUUUCCUUUUUUUGUAUCUACACCCACACGAUUCCCAAUGUUGGAUAUUUCUACAUGGAAUUCUCGGGUGCCAA`: “RBNS enrichment (R)” 1.28.
For `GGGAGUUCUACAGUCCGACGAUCAAGCAUCAACAUGGAACCAUCUCAGGAAGCCGCAUCGCCUCUUCCGAGGUCCUCACUUCCAGGAGCCUGUCCUUGCAAGAUGCAAUCAUCGUUCCUGCUUUUUCAUUGUCUGGAAUUCUCGGGUGCCAA`, “RBNS enrichment (R)” read 0.615.

Block 3
Target: Centromere-binding protein 1, full length, N-terminal tag (CBF1, Saccharomyces cerevisiae, UniProt P17106, residues 1-351)
Chain of UniProt P17106 (whole entry, looked up): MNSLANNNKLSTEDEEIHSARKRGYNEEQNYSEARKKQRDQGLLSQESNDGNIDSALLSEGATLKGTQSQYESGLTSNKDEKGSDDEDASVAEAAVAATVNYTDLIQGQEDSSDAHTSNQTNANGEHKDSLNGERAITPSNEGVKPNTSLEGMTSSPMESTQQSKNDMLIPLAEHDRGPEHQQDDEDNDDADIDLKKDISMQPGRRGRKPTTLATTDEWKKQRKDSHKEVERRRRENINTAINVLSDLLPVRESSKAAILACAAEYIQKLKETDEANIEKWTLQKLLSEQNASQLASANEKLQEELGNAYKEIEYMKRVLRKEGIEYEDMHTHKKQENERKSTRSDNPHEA
Method: protein-binding microarray
Form: double-stranded DNA, one strand shown
Sample: in vitro
Concentration: 0.8 µM
Setting: whole 60-bp probe, no competitor
Reading: higher = stronger binding
With `CTAGCCTGCAATCGTCATCATATGAGAAATGGATTCGTCTTGATTCGCTTGACGCTGCTG` the fluorescence intensity was 520 a.u.
The fluorescence intensity of `GAACTTCGAGAGAATCACACCATTCAAGTATAATAGGTCTTGATTCGCTTGACGCTGCTG` is reported as 555 a.u.
The fluorescence intensity of `GAATATTAAATAAACATCAGAACACATTGAGGATAGGTCTTGATTCGCTTGACGCTGCTG` is reported as 563 a.u.
With `CTAAGACCCTTGCAGCACGTTTTTTTCAGGCTCTTCGTCTTGATTCGCTTGACGCTGCTG` the fluorescence intensity was 723 a.u.

Mixed results
For `PhoQ, residues 284 288 289 292 302 303 TLSLKA`, the fold induction was 8.86 (PhoP, residues 12 14 15 18 19 HLGGL (Escherichia coli, UniProt P23836); Sort-seq, measured: YFP reporter; E. coli; PhoQ-PhoP variant library, added: 10 µM Mg2+; reference: high Mg2+ state, higher = stronger signaling).

For quick reference, copied from above (block 1):
`GACGGAATGGGGTTTCGGGACGTGCTA` gave a log fluorescence of 1.31 z-score.
With `TTTTACATTTTAAGAAATGTGTGCTAG` the log fluorescence was 1.04 z-score.
